Experimental data from different studies.
Parts stem from different laboratories: compare values within a part only.

Set 1 — technique: universal PBM; molecule type: double-stranded DNA, one strand shown; sample: in vitro; tested at: 600 nM; reading: higher = stronger binding
Target: Sal-like protein 4, full length isoform A (SALL4, Homo sapiens, UniProt Q9UJQ4, residues 1-1053)
Chain of UniProt Q9UJQ4 (whole entry, looked up): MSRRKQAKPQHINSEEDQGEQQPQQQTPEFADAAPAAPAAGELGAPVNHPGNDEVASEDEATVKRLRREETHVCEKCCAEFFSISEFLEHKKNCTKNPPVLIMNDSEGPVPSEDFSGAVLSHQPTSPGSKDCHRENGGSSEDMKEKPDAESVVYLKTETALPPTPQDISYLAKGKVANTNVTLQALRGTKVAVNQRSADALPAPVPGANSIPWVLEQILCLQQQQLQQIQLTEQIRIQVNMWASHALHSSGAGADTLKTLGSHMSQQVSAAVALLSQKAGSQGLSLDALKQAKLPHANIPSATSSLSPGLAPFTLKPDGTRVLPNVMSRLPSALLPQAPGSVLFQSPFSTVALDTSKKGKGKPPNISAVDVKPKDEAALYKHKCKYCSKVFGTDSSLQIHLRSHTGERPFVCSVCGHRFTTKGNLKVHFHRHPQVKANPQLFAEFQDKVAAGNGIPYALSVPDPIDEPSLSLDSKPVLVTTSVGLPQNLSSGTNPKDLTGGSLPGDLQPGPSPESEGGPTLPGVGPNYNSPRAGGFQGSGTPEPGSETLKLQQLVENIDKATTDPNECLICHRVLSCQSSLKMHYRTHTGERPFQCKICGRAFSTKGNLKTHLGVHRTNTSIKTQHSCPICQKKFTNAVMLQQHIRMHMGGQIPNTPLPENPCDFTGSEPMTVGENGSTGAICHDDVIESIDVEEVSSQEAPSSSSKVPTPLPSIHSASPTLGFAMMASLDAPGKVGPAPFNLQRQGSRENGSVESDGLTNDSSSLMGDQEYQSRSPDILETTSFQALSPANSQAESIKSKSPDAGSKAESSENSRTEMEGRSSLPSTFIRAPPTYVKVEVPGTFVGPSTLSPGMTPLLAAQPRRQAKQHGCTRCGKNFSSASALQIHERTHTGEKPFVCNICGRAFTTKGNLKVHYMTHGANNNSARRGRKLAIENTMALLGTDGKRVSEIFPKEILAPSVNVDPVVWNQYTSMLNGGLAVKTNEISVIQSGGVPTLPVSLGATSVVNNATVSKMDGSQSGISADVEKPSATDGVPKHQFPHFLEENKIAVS
Setting: 8-mer, flanks averaged, mean of replicates
Strand | E-score
AGGCGACC | -0.251
AACTCTAC | -0.119
GCTCGCCC | -0.35
AACGCCCA | -0.0273
GCGGTGCA | -0.284
CACCAACA | -0.136
CGGATATA | 0.187
CGGGGAAG | -0.215
CCTTCGGC | -0.349
AACCGAAA | 0.147
AGAGATGA | 0.135
ACCTAGCA | 0.0315
ATAGCAGA | 0.0793
GGCACGGA | -0.205
GGTCAGTA | -0.081
GTCTCCGA | -0.16
CCCTTCGA | -0.293
TAACGAGA | 0.201
AATTAAAG | 0.273
AGCAAGGC | -0.243
AGTCGGTG | -0.274
ATATGGTC | 0.189

Set 2 — technique: RNA Bind-n-Seq; molecule type: RNA; sample: in vitro; tested at: 365 nM; relative to: no-protein control; reading: higher = stronger binding
Target: RNA binding protein fox-1 homolog 2, RRM domain, GST-SBP tag (RBFOX2, Homo sapiens, UniProt O43251-10, residues 100-194)
Setting: natural RNA segment, single round, ends assumed
Shared flanks, not repeated: GGGAGUUCUACAGUCCGACGAUC … UGGAAUUCUCGGGUGCCAA
Construct (chain): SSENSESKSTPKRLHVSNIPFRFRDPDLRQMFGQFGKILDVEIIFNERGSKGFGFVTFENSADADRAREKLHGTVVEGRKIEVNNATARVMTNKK
Strand | RBNS enrichment (R)
CUUCCCUUUUGAAAGGCCCGUGUGUUUUCUUUCCUUACCCUGUGCUUGCUCAUGUCUACUCCGGUUUUCUCUACCACAUCCUUAGAGCCAUCACCUGGCACGCAGGCGCC | 0.643
ACCAUGCUAAGCCAUGACCAGUGAGGAGAAGCAACAGAGCCUGUCUGUCCCCAUGAGCGGAGUCUGUCCUCUGCUCUUCUGCAGUCAGGUCACUGCCUACUGCCUGGGGG | 0.238
AUUGUGUGUAUGUAUGUUUAAUAUAACAUGACAGGCACGAGGACGCCUGCCUUUUAAGAGGCAGUUCCGUUAAGGGUUUUUGUUUUAAAACUCUUUUUUUUCCUUUCUUU | 0.426
CAACAAGUCAGUCGUCUCCAUUGAUAUUUGUACAAAAGGUAUACAUGGGGAACACGUGUUCAUUCAUUAAGUCCAUCUUGCGUGCAGCUAUAUCCCUGAUUGGUUAUUUU | 0.254
CUUCAUCCUACCCAGAAAUUAUUGAUUUUCAAGUUUUAAAAAAAUUGUACCUUUUUUGCUGACAGAAAAGGAUCAGAUAUGUAUAAAAUAGUUGAACUUGACAGCAUAUA | 0.779
AUUUAUGUAACAAUUCCUUAAAGCCAUUCAAAUGGCUAACUAUUUAAUUUCUUUAGGACAGUUGUAAAGGUCUCUCUCCUGAGGACAAUGACUUGGAAGAACUGGGGCAC | 2.73
GUAGAUUGGGCGUCUGAGACCCAGAACAUCCUAAAUUUGCAAUGGGUAACAGCUGAAACAAACGGAAGUUUUUGUACCAAAGUGGCCGGAGGUGGGGAAGAACUACUUUC | 0.617
AUUGGUACCAGUAGAUCAGCUGCCUAGCGAGGGCAGGUUUCUUCUUUGCAUCUGUGUGGCUUGCUUCCAGUCUGGCCUGUCCUUUCCAGCUGCCUUUUGUCUAGCCUGCU | 1.01
UUUGGGCCCAGUGCCUUGGUGAAGGUUGAUUAGCUUGACUGUCUUUGAAAGUAUCUGAUGGAGCUCCUGAUGACCUAAUGUAUCCUUUAGAAAUUUAAAAUAGCAUUAGA | 0.565
UUAAUUUCCAUUUUAAGGUGGUGUCUGUGCAGCCGUGUCCCUGGUUCUGGCUGUUUUCUGUCUGGUGGAGAAGCCUGCUUGUCAAAGCUGACCUCUUAGAGCCGCACAGA | 0.228
CUAUCUGAUAGAGGUAUUUUCUGUGGCCCUGGGAGCUGUCUGUCUUUCCCCUACCCCCAAGGAUGCCAGGAAGACGUCCACCAUUAGCCAUGUGGCAACCUUUACUUCUA | 0.34
AUAAGAUGGCCGAAUUACUGAAAUCACCAUUAUACCUCUUCCAUAAAACGACUCCAAAGUUAGACCUGCCUGUUGGGGAGAAUUCUAUAGACAGAAGGUCAAUGUUGUCC | 1.05

Set 3 — technique: protein-binding microarray; molecule type: double-stranded DNA, one strand shown; sample: in vitro; tested at: 0.8 µM; setting: whole 60-bp probe, no competitor; reading: higher = stronger binding; shared flanks, not repeated: … GTCTTGATTCGCTTGACGCTGCTG
Target: Centromere-binding protein 1, full length, N-terminal tag (CBF1, Saccharomyces cerevisiae, UniProt P17106, residues 1-351)
Chain of UniProt P17106 (whole entry, looked up): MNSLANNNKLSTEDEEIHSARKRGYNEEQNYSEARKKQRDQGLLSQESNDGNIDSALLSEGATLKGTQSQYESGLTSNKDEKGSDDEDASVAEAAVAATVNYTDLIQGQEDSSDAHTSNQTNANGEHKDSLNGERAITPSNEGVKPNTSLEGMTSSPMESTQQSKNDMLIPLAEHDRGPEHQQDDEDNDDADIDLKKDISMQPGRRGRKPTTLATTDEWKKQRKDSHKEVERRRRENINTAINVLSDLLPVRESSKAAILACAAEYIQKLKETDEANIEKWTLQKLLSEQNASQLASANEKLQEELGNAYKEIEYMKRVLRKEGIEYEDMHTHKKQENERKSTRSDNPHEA
Strand | fluorescence intensity
TGTACGAAGCTATCACAGGAGATTATAGTAGTTAGG | 523 a.u.
CTAGTCGTCGTACGTGATGAGGGCAGGCTTGAATTC | 552 a.u.
GAAGTTTTAAAATGTCATGCGTTTTCGTCATTTTAG | 654 a.u.
GAAGGGTTAAAGAGTCACGGTGAAATTTGAATTTAG | 655 a.u.
GAAATAATAAAAGAAAACGTGCATATATACATATAG | 841 a.u.
CTATTGTACAGTTTTCACATGACGATTGGAAATTTC | 797 a.u.
GAACGGACCTTCAAGGATGTGACGTTTTTGCCTTAG | 509 a.u.
GAATTCTATGTGTATCACCTGTTATACGTGTTGTAG | 789 a.u.
CCTAACTACTATATTGTCGTGATATAGCTTCGTACA | 563 a.u.
GAAACAAATTTTGCTAGCGTGACTCTTTATTACTAG | 1090 a.u.
CTATGATCTTGTATTCATGTGATTGTAAATAATTTC | 1560 a.u.
GAATGGTTTTACTTGCACGTGACCAAGAATGGTTAG | 37500 a.u.
GAACGGTGAGAACGTGATGTGATAGCCGTTACATAG | 2100 a.u.
GAAGTGGGATACTATCACGACAATGACAGCTGCTAG | 592 a.u.
GAAAATAGACGTAGCCACATGCAGCCTTTAATATAG | 552 a.u.
GAACCACGATGATCGCACGTGCCGGCATTTATATAG | 8290 a.u.
GAACATAAAGAGCACGTGCGGGCGCGCTGGGTATAG | 11900 a.u.
CTAGTAATTGCAGATCAACTGATAAATTAGAAATTC | 572 a.u.
CTATTGAGAAACAGTCACCAGATTTAGGGGAAGTTC | 560 a.u.
GAACTATGCTAACATGATGCCACTACGTTTGTGTAG | 514 a.u.
GAAGTCTCTACTGGTGGTGGTGCTTCTTTGGAATAG | 512 a.u.
CCTAACTACTATAATCATGTCATATAGCTTCGTACA | 548 a.u.
CTATCTTGCCTTCATCACCATTATTGAATTACATTC | 557 a.u.
TGTACGAAGCTATAGATCGTGATTATAGTAGTTAGG | 578 a.u.
GAAGTCAGGCCACGTCTCCTGTGGCAAAGTGGGTAG | 512 a.u.

Set 4 — technique: protein binding microarray; molecule type: double-stranded DNA, one strand shown; sample: in vitro; tested at: not given; relative to: not given; reading: higher = stronger binding
Target: Histone acetyltransferase KAT6A, winged helix 1, GST fusion (KAT6A, Homo sapiens, UniProt Q92794, residues 1-85)
Setting: 8-mer, flanks averaged, mean of 2 arrays, mostly near background
Target sequence (chain): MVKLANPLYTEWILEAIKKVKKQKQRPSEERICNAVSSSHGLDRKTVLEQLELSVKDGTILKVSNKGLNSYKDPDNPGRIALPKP
Strand | E-score
AAGAAATT | -0.129
AGACACCA | -0.306
GATATACA | 0.0345
ACTGCAAC | -0.15
ATTGGCCC | -0.202
GTCAATCA | -0.158
CCGCACAA | 0.163
CCGCGGTA | 0.45
GGATTAAA | -0.0278
CAGACTCA | -0.191
GCATGCAA | 0.00554
AGTACGTG | -0.123
GGGTACTA | -0.0392
AACTAACA | -0.0394
GGCGCACA | 0.337
AGAGTTGG | -0.184
ATCGGGAA | 0.246
AGTGGGGC | -0.21
AACCTCCC | -0.031
CGCTCGAG | 0.206
AAACGTGG | -0.183
CCCGAGCA | -0.13
AACCGGGC | 0.204
CCGTATGC | 0.32
TGATGGCA | -0.158

Set 5 — technique: RNAcompete; molecule type: RNA; sample: in vitro; tested at: 20 nM; setting: 7-mer, probes averaged, single round; relative to: mean of 7-mers; reading: higher = stronger binding
Target: PABPC1L2, full length, GST fusion (mouse, UniProt A0ABA7IW68)
Construct (chain): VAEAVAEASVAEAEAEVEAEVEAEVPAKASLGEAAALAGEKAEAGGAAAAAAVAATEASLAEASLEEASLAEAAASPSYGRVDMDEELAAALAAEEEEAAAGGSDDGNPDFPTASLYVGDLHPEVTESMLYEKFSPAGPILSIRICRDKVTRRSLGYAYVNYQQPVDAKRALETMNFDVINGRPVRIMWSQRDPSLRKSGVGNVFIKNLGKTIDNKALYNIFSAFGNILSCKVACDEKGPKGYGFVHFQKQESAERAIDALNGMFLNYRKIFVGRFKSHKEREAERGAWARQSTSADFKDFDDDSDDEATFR
Strand | 7-mer Z-score
AAAACAU | 8.41
CAGGACG | -0.0283
UCUUCCU | -0.38
GUAUUCA | -0.286
GGGGAGG | 0.534
CUCGCGU | -0.458
GUAUUGA | -0.2
GGCACCC | -0.213
ACAUAAA | 3.53
GUUCCAU | -0.258
UUCCGCG | -0.411
CUCGUGA | -0.318
UCUGAAA | 0.36
AACAGAA | 1.46
AAAAUAU | 5.46
UUUUCAA | -0.278
CACCGAC | -0.0989
UUUAAGU | -0.0319
GAAUACG | -0.195
CCAGCAU | -0.277
UUAUCAC | -0.157
CACGCCG | -0.32
UUGUUAA | -0.124
CUGUCCG | -0.398
GUACCGG | -0.173

For quick reference, copied from above (set 4):
Strand | E-score
GTCAATCA | -0.158
AACCTCCC | -0.031
AACCGGGC | 0.204
CCGCACAA | 0.163
AGTGGGGC | -0.21
GGCGCACA | 0.337
AAGAAATT | -0.129
GGATTAAA | -0.0278
ACTGCAAC | -0.15
